# Measured values of several laboratories.
# Each line is one published result; not all experiments were run side by side.
# 4'-phosphopantetheinyl transferase PptT: 4'-phosphopantetheinyl transferase PptT (Mycobacterium tuberculosis, UniProt O33336)
# Sequence of UniProt O33336 (whole entry, looked up): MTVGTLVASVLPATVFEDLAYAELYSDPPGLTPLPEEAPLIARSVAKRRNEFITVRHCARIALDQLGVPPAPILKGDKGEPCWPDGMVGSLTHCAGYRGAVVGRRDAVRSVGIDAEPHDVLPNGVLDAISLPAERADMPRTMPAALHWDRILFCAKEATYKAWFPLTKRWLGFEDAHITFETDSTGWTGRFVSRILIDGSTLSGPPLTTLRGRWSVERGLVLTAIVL
# Sequence of UniProt O14936 (whole entry, looked up): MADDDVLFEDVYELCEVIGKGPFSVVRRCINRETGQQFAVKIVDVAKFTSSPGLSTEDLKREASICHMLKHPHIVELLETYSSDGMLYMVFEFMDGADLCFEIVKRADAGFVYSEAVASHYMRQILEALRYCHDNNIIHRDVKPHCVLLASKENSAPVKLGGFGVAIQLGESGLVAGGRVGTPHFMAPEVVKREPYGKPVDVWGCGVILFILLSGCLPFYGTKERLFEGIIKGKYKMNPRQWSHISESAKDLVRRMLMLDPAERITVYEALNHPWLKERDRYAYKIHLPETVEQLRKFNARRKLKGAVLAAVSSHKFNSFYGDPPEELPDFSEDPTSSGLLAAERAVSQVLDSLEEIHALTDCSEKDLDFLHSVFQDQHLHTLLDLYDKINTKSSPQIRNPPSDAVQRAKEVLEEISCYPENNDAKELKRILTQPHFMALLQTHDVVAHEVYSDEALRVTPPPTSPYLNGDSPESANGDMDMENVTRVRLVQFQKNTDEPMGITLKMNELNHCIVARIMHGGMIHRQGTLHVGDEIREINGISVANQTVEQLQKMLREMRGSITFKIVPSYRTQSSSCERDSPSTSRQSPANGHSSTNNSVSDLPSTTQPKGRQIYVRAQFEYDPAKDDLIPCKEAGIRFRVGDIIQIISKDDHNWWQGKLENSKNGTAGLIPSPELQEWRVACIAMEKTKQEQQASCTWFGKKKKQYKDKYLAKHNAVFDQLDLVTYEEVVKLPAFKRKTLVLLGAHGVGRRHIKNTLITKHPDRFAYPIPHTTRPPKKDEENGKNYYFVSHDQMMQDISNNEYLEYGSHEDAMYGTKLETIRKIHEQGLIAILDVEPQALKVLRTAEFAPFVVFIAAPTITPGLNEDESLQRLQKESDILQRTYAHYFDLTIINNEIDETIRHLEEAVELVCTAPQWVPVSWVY
# Sequence of UniProt O15111 (whole entry, looked up): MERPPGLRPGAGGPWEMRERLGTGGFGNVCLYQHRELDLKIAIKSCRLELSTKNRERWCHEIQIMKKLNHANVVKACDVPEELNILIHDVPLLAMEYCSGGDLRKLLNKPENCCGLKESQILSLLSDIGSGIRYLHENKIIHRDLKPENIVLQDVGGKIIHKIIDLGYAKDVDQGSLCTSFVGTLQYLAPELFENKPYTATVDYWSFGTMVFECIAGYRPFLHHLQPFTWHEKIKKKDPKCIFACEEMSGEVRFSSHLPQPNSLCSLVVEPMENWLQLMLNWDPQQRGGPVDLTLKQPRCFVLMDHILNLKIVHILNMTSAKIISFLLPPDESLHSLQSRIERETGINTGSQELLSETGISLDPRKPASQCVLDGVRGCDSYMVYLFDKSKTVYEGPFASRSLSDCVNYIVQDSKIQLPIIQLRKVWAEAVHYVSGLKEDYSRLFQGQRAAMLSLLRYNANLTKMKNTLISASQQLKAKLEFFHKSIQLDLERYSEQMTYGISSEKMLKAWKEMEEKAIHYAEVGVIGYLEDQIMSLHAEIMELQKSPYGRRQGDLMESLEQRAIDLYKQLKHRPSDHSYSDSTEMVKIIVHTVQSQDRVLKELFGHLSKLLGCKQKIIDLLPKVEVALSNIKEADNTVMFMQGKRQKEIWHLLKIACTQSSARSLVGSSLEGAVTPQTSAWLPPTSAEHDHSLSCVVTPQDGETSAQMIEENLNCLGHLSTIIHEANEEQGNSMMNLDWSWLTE
# Sequence of UniProt Q6P3R8 (whole entry, looked up): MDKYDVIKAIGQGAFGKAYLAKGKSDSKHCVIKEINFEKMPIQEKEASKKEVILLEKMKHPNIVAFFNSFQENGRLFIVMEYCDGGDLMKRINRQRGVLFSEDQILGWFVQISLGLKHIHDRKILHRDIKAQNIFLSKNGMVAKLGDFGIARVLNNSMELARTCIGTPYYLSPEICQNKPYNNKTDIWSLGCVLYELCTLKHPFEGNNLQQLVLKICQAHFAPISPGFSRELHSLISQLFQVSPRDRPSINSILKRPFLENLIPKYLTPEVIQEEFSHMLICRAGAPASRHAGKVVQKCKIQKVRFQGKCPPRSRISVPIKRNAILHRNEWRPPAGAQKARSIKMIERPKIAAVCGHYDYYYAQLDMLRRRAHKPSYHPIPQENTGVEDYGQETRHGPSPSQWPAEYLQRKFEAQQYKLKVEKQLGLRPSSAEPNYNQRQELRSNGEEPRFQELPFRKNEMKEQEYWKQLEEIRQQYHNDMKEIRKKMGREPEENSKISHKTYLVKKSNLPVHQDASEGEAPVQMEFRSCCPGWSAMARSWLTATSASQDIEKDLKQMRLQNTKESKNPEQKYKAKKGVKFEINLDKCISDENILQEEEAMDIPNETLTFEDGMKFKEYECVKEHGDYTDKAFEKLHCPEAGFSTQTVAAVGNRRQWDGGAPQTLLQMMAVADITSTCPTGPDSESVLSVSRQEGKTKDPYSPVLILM
# Sequence of UniProt O14976 (whole entry, looked up): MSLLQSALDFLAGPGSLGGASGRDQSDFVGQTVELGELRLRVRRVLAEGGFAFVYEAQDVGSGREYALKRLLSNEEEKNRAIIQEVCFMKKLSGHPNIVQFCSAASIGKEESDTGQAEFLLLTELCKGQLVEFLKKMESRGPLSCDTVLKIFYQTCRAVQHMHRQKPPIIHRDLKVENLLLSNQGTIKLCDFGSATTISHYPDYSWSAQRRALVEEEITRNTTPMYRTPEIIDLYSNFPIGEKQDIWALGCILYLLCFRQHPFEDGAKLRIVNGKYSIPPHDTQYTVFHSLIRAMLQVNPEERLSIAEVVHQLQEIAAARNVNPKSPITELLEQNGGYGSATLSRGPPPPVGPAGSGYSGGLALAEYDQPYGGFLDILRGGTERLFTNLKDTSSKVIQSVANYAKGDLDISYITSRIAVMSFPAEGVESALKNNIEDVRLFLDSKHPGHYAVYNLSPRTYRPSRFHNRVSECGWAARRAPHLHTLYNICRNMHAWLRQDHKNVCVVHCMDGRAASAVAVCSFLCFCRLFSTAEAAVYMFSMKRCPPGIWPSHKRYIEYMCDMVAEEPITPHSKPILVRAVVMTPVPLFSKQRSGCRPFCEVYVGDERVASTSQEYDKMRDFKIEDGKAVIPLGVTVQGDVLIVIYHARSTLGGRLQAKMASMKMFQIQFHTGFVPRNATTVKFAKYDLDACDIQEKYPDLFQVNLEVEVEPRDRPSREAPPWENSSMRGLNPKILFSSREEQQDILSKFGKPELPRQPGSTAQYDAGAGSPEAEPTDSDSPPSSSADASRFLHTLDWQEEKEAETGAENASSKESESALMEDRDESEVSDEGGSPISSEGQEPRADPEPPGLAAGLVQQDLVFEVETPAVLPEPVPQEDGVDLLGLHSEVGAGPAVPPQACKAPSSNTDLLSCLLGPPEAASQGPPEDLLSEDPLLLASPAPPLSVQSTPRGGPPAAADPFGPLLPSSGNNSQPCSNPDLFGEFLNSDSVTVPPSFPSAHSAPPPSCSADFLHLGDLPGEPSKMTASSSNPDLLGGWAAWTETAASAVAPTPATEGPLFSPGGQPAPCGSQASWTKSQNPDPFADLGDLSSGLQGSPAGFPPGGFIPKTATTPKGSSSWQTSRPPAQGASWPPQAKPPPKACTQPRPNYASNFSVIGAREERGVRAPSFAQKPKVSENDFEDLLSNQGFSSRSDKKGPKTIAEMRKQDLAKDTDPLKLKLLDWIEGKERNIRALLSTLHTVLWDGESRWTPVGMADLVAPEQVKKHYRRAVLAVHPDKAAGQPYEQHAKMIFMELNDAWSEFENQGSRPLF
SMILES,target or system,assay,setting,quantity,value
N.N.[Cl][Pt][Cl],OCI-Ly3,"cell growth or viability, ATP luminescence",72 h,IC50,850 nM
Cc1nn(C)cc1-c1nc2c(N3CCN(Cc4ccc(Cl)cc4)CC3)c(Cl)cnc2[nH]1,"CASK (Homo sapiens, UniProt O14936)","binding, competition with immobilised ligand",1 µM,remaining binding,84%
O=C1[O][Pt]2([NH][C@@H]3CCCC[C@H]3[NH]2)[O]C1=O,PLC-PRF-5,"cell growth or viability, imaging",72 h,IC50,12600 nM
COc1cc(C(=O)c2nc(-c3cccc4[nH]ccc34)c[nH]2)cc(OC)c1OC,M14,"cell growth or viability, MTS",72 h,IC50,0.6 nM
N.N.[Cl][Pt][Cl],A549,"cell growth or viability, MTT",,IC50,7540 nM
COc1ccc(-c2cc(C(F)(F)F)c3c(N)c(C(=O)NCC45CC6CC(CC(C6)C4)C5)sc3n2)cc1,HepG2,cell growth or viability,72 h,IC50,> 100000 nM
COc1ncccc1-c1cnn2ccc(N3CCN(C(=O)OC(C)C)CC3)nc12,"GAK (Homo sapiens, UniProt O14976)","binding, competition with immobilised ligand",1 µM,remaining binding,42%
CS(=O)(=O)OCCN(CCBr)c1c(C(=O)NCCO)cc([N+](=O)[O-])cc1[N+](=O)[O-],T-ALL,cell growth or viability,48 h,IC50,1800 nM
O=C1CCP(=S)(c2ccccc2)CC1,HCT-116,"cell growth or viability, MTT",72 h,IC50,4400 nM
COc1c(C)c2c(c(O)c1C/C=C(\C)CCC(=O)O)C(=O)OC2,SK-BR-3,cell growth or viability,,IC50,1550 nM
COc1cc(C(=O)c2nc(-c3cccc4[nH]ccc34)cn2C)cc(OC)c1OC,A-375,"cell growth or viability, MTS",72 h,IC50,153 nM
COc1ccc(-c2cc(C(F)(F)F)c3c(N)c(C(=O)Nc4cccc(C)c4C)sc3n2)cc1,HepG2,cell growth or viability,72 h,IC50,36000 nM
COc1cc(C(=O)c2nc(-c3c[nH]c4cccc(C)c34)c[nH]2)cc(OC)c1OC,A-375,"cell growth or viability, MTS",72 h,IC50,147 nM
CC(C)C[C@@H]1NC(=O)CNC(=O)[C@H](CC(N)=O)NC(=O)[C@H](CCCNC(=N)N)NC(=O)[C@H]([C@@H](C)O)NC(=O)[C@@H]2CSSC[C@@H]3NC(=O)[C@H]([C@@H](C)O)NC(=O)CNC(=O)CNC(=O)[C@H](C(C)C)NC(=O)[C@@H]4CSSC[C@H](NC(=O)[C@H]([C@@H](C)O)NC(=O)[C@H](CSSC[C@H](NC(=O)[C@H](C(C)C)NC(=O)[C@@H]5CCCN5C1=O)C(=O)NCC(=O)N[C@@H](CCC(=O)O)C(=O)N[C@@H]([C@@H](C)O)C(=O)N4)NC(=O)CNC(=O)[C@@H]1CCCN1C(=O)[C@H]([C@@H](C)O)NC(=O)[C@H](CC(N)=O)NC3=O)C(=O)N[C@@H](CO)C(=O)N[C@@H](Cc1c[nH]c3ccccc13)C(=O)N1CCC[C@H]1C(=O)N[C@@H](CCCCN)C(=O)N2,Sf9,"cell growth or viability, MTT",24 h,IC50,> 32000 nM
S=P1(c2ccccc2)CCCCC1,HCT-116,"cell growth or viability, MTT",72 h,IC50,> 100000 nM
COc1cc(C(=O)c2nc(-c3cccc4[nH]ccc34)c(Br)[nH]2)cc(OC)c1OC,A-375,"cell growth or viability, MTS",72 h,IC50,> 1000 nM
Nc1ncc(-c2nc(N3CCOCC3)nc(N3CCOCC3)n2)c(C(F)F)n1,"CHUK (Homo sapiens, UniProt O15111)","binding, competition with immobilised ligand",10 µM,remaining binding,39%
Nc1c(C(=O)N2CCOCC2)sc2nc(Cl)ccc12,HepG2,cell growth or viability,72 h,IC50,> 100000 nM
COc1cc(C(=O)c2nc(-c3c[nH]c4ccccc34)c[nH]2)cc(OC)c1OC,M14,"cell growth or viability, MTS",72 h,IC50,23.5 nM
COc1ccc(-c2ccc3c(N)c(C(=O)Nc4cccc(C)c4C)sc3n2)cc1,HepG2,cell growth or viability,72 h,IC50,> 100000 nM
COc1cc(C(=O)c2nc(-c3cccc4ncccc34)c[nH]2)cc(OC)c1OC,A-375,"cell growth or viability, MTS",72 h,IC50,> 1000 nM
O=c1c2ccc(Cl)cc2[nH]c(=S)n1Cc1cccnc1,4'-phosphopantetheinyl transferase PptT,"enzyme activity, inhibitor, FP",,IC50,15500 nM
COc1cc(C(=O)c2nc(-c3ccc4ccccc4c3)c[nH]2)cc(OC)c1OC,M14,"cell growth or viability, MTS",72 h,IC50,240 nM
COc1ccc(-c2cc(C(F)(F)F)c3c(N)c(C(=O)Nc4ccccc4)sc3n2)cc1,HepG2,cell growth or viability,72 h,IC50,> 100000 nM
COc1cc(C(=O)c2nc(-c3cccc4occc34)c[nH]2)cc(OC)c1OC,M14,"cell growth or viability, MTS",72 h,IC50,73.3 nM
Nc1c(C(=O)Nc2ccccc2F)sc2nc(-c3ccccc3)cc(C(F)(F)F)c12,HepG2,cell growth or viability,72 h,IC50,> 100000 nM
COCc1ccc2[nH]c(=S)n(Cc3cccnc3)c(=O)c2c1,4'-phosphopantetheinyl transferase PptT,"enzyme activity, inhibitor, FP",,IC50,1390 nM
COc1ccc(-c2cc(C(F)(F)F)c3cc(C(=O)NC(C)c4ccccc4)sc3n2)cc1 (stereo not shown),HepG2,cell growth or viability,72 h,IC50,> 100000 nM
[2H]c1c([2H])c([C@]2([2H])CCCN2C(=O)C(C)(C)Oc2ccc3cn[nH]c3c2)c([2H])c([2H])c1C([2H])([2H])[2H],"NEK5 (Homo sapiens, UniProt Q6P3R8)","binding, competition with immobilised ligand",1 µM,remaining binding,83%
COc1ccc(-c2cc(C(F)(F)F)c3c(N)c(C(=O)NCCSC)sc3n2)cc1,HepG2,cell growth or viability,72 h,IC50,> 100000 nM
Cc1sc2c(c1C)C(c1ccc(Cl)cc1)=N[C@@H](CC(=O)OC(C)(C)C)c1nnc(C)n1-2,SET-2,"cell growth or viability, ATP luminescence",,IC50,944 nM

# For quick reference, copied from above:
SMILES,target or system,assay,setting,quantity,value
N.N.[Cl][Pt][Cl],A549,"cell growth or viability, MTT",,IC50,7540 nM
O=c1c2ccc(Cl)cc2[nH]c(=S)n1Cc1cccnc1,4'-phosphopantetheinyl transferase PptT,"enzyme activity, inhibitor, FP",,IC50,15500 nM
COc1cc(C(=O)c2nc(-c3ccc4ccccc4c3)c[nH]2)cc(OC)c1OC,M14,"cell growth or viability, MTS",72 h,IC50,240 nM
